Measured values of several laboratories.
Every numbered part comes from another study and shows a few of its results, in no order.
Chain of UniProt Q02763 (whole entry, looked up): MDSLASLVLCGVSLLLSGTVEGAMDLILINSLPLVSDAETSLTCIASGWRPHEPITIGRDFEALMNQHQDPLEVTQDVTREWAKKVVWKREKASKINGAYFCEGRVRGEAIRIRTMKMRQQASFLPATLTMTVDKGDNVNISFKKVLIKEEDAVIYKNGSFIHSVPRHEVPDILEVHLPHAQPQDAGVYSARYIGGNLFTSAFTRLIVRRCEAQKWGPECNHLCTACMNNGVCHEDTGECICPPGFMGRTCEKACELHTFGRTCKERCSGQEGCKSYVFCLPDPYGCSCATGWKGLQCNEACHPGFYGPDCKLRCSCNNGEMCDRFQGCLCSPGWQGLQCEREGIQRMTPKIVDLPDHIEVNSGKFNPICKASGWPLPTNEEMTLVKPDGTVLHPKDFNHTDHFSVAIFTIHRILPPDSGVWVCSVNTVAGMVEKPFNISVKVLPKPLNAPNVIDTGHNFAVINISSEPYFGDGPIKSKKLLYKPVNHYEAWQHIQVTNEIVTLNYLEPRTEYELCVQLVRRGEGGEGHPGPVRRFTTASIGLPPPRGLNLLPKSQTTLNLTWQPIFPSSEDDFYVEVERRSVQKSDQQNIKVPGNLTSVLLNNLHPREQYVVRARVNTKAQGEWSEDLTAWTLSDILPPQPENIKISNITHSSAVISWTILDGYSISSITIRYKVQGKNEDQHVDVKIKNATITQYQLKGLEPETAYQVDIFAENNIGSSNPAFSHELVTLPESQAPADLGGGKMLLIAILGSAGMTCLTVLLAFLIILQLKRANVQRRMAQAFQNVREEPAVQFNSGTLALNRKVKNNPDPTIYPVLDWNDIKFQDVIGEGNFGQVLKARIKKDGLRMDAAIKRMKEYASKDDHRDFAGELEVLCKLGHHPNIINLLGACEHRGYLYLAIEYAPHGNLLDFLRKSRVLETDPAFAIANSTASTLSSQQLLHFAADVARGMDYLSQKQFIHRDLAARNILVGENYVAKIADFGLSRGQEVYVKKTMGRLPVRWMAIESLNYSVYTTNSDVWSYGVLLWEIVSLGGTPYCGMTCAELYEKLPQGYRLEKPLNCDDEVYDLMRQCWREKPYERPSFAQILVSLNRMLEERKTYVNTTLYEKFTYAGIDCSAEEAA
Chain of UniProt O95747 (whole entry, looked up): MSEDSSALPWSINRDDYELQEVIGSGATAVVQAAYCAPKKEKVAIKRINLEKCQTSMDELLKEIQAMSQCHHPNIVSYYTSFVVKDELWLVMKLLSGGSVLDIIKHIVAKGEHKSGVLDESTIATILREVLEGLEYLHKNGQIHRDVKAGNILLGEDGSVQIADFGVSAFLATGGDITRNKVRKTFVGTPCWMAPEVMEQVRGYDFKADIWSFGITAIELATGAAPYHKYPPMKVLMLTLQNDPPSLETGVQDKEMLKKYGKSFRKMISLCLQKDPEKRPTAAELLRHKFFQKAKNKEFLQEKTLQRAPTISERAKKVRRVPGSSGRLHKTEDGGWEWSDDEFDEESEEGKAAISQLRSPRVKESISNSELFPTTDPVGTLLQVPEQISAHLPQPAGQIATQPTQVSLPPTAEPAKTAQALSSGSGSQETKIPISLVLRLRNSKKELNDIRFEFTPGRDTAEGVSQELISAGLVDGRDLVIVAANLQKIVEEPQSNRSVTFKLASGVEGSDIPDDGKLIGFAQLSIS
Chain of UniProt O15146 (whole entry, looked up): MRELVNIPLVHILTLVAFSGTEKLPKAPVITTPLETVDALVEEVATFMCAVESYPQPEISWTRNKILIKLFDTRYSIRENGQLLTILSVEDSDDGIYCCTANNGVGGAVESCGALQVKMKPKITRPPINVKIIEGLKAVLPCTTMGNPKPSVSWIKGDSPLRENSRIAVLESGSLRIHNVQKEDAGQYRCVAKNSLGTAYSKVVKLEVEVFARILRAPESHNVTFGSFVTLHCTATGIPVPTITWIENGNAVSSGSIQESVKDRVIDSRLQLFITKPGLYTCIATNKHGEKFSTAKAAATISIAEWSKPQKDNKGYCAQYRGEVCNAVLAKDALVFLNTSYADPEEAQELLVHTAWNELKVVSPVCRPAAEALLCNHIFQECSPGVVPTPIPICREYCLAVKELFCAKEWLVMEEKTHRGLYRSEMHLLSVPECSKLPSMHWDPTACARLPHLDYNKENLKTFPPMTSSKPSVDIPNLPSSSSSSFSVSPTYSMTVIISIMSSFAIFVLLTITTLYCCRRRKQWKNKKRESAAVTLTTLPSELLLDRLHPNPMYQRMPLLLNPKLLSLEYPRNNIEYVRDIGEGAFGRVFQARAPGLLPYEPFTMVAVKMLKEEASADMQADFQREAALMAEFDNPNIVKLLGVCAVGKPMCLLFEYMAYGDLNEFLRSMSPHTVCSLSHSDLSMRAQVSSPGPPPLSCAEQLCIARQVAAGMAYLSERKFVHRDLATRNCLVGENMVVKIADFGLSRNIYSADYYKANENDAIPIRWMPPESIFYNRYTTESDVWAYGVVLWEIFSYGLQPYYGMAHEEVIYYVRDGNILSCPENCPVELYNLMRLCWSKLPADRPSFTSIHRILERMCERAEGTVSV
Chain of UniProt O75676 (whole entry, looked up): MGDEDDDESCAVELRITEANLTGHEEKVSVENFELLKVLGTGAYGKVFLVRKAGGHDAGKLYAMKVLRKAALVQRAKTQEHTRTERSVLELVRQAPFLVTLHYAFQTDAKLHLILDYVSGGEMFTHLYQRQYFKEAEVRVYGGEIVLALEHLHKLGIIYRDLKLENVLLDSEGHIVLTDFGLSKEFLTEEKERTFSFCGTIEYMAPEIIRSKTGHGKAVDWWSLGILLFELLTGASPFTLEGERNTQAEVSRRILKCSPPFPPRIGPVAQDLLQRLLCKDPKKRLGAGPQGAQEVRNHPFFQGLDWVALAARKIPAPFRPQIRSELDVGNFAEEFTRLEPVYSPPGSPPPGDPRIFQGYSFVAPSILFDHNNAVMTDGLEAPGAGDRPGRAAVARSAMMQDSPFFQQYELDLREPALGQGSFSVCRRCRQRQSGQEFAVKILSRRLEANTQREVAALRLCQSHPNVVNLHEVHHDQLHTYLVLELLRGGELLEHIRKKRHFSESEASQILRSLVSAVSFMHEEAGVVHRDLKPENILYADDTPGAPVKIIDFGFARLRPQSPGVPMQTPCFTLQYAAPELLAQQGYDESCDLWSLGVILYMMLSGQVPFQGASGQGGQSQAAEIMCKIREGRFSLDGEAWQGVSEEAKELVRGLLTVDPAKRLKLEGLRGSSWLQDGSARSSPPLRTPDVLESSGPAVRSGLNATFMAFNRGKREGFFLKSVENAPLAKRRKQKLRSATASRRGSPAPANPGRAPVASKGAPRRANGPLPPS
Chain of UniProt Q8WTQ7 (whole entry, looked up): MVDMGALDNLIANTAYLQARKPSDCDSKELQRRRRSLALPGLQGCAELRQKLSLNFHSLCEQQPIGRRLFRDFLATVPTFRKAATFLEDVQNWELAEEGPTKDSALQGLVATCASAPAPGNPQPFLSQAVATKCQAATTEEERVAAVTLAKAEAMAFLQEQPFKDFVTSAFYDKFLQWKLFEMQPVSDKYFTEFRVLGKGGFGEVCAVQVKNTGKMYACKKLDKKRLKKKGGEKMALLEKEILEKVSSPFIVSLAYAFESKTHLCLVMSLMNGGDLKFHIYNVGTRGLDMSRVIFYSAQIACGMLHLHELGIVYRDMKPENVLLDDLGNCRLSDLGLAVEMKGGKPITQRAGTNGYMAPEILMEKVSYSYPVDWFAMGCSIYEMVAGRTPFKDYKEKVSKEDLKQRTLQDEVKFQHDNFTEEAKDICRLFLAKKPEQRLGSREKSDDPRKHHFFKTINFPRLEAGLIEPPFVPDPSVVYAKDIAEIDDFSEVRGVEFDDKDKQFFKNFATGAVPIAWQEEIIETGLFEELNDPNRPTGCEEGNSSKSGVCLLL

Block 1 — effect on: enzyme activity; mode: inhibitor; tested at: 10 µM
Target: Calcium/calmodulin-dependent protein kinase type II subunit alpha (CAMK2A, Homo sapiens, UniProt Q9UQM7)
Chain of UniProt Q9UQM7 (whole entry, looked up): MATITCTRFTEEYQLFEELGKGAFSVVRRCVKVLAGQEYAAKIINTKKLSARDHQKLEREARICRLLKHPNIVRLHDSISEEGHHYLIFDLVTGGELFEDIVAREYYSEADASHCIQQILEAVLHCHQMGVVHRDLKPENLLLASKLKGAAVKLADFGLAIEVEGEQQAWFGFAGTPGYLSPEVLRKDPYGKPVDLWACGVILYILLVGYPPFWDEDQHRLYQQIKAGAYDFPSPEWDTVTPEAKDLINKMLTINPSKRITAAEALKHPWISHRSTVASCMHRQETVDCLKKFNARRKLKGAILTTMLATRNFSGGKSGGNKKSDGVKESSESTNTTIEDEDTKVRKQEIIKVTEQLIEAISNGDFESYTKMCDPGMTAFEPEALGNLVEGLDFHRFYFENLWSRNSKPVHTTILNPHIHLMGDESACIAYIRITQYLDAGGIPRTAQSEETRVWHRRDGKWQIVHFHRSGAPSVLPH
For `Cc1nnc(SCC2=C(C(=O)O)N3C(=O)[C@@H](NC(=O)Cn4cc(Cl)c(=O)c(Cl)c4)[C@H]3SC2)s1`, the inhibition was 2%.
For `O=C(/C=C/c1ccc(O)c(O)c1)O[C@@H]1CC(C(=O)O)=C[C@@H](O)[C@H]1O`, the inhibition was 32%.
`COc1cc(O)c(C(=O)/C=C/c2ccccc2)c(OC)c1` has an inhibition of 0%.
`C[N+](C)(C)C[C@H](O)CC(=O)[O-]` gave an inhibition of -10%.
The inhibition of `COc1c(O)c2c(=O)cc(OC)c3c4c(OC)cc(=O)c5c(O)c(OC)c6c(c(c1CC(C)=C6C(C)=O)c23)c54` is reported as 10%.
The inhibition of `O=C(O)/C=C/C(=O)O` is reported as 5%.
For `CCCCCCCC(=O)OCC(COC(=O)CCCCCCC)OC(=O)CCCCCCC`, the inhibition was 4%.
The inhibition of `CC(/C=C/C=C(\C)C(=O)OC1OC(COC2OC(CO)C(O)C(O)C2O)C(O)C(O)C1O)=C\C=C\C=C(C)\C=C\C=C(/C)C(=O)OC1OC(COC2OC(CO)C(O)C(O)C2O)C(O)C(O)C1O` (stereo not drawn) is reported as -23%.
For `CC(C)CCCO`, the inhibition was 29%.
`O=c1c(O[C@@H]2O[C@H](CO)[C@@H](O)[C@H](O)[C@H]2O[C@@H]2O[C@H](CO)[C@@H](O)[C@H](O)[C@H]2O)c(-c2ccc(O)c(O)c2)oc2cc(O)cc(O)c12` gave an inhibition of -41%.
For `O=C(O)CCCCCCCCCCCCCCC(=O)O`, the inhibition was 2%.
The inhibition of `C=C[C@H]1[C@H](O[C@@H]2O[C@H](CO)[C@@H](O)[C@H](O)[C@H]2O)OC=C(C(=O)OC)[C@H]1CC(=O)O` is reported as 5%.
For `CC(=O)c1ccccc1N`, the inhibition was -11%.

Block 2 — mode: inhibitor; tested at: 10 µM; baseline: control
Target: Diamine acetyltransferase 1 (Homo sapiens, UniProt P21673)
Residues (P21673 1-171): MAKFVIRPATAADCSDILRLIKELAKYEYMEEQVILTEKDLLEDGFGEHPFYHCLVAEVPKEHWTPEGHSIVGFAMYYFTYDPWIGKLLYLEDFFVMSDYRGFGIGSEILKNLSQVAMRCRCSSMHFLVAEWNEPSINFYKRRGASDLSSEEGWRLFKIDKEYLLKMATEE
With `CC(C)[C@@H]1CC[C@@H](C)CC1=O` the remaining activity was 82.8%.
`C[C@@H]1O[C@@H](Oc2c(-c3ccc(O)c(O)c3)oc3cc(O)cc(O)c3c2=O)[C@H](O)[C@H](O)[C@H]1O` has a remaining activity of 86.9%.
With `C[C@@H]1C(=O)O[C@H]2C[C@]34[C@@H]5OC(=O)[C@]3(O[C@@H]3OC(=O)[C@H](O)[C@@]34[C@H](C(C)(C)C)[C@H]5O)[C@]21O` the remaining activity was 77.4%.
For `O=Cc1ccc(O)cc1O`, the remaining activity was 88.7%.
The remaining activity of `C[C@]1(O)C[C@@H](O)[C@@H]2C=CO[C@@H](O[C@@H]3O[C@H](CO)[C@@H](O)[C@H](O)[C@H]3O)[C@@H]21` is reported as 101%.
The remaining activity of `COc1cc(O[C@@H]2O[C@H](CO[C@@H]3O[C@H](CO)[C@@H](O)[C@H](O)[C@H]3O)[C@@H](O)[C@H](O)[C@H]2O)c2c(O)c3c(=O)cc(C)oc3cc2c1` is reported as 111%.
`CCOC(=O)CC(O)(CC(=O)OCC)C(=O)OCC` gave a remaining activity of 85.9%.
`COc1cc2ccc(=O)oc2cc1OC` gave a remaining activity of 84.7%.
`C/C=C/c1ccc(O)c(OC)c1` has a remaining activity of 125%.
The remaining activity of `O=C(/C=C/c1ccc(O)c(O)c1)c1ccc(O)cc1O` is reported as 77.7%.
`COc1c2ccoc2c(OC[C@@H](O)C(C)(C)O)c2oc(=O)ccc12` gave a remaining activity of 89.7%.
The remaining activity of `O=c1c(-c2ccc(O)cc2)coc2cc(O[C@@H]3O[C@H](CO)[C@@H](O)[C@H](O)[C@H]3O)cc(O)c12` is reported as 96.3%.

Block 3 — effect on: enzyme activity; mode: inhibitor; tested at: 0.5 µM; baseline: control
Target: Serine/threonine-protein kinase PAK 5 (PAK5, Homo sapiens, UniProt Q9P286)
Chain of UniProt Q9P286 (whole entry, looked up): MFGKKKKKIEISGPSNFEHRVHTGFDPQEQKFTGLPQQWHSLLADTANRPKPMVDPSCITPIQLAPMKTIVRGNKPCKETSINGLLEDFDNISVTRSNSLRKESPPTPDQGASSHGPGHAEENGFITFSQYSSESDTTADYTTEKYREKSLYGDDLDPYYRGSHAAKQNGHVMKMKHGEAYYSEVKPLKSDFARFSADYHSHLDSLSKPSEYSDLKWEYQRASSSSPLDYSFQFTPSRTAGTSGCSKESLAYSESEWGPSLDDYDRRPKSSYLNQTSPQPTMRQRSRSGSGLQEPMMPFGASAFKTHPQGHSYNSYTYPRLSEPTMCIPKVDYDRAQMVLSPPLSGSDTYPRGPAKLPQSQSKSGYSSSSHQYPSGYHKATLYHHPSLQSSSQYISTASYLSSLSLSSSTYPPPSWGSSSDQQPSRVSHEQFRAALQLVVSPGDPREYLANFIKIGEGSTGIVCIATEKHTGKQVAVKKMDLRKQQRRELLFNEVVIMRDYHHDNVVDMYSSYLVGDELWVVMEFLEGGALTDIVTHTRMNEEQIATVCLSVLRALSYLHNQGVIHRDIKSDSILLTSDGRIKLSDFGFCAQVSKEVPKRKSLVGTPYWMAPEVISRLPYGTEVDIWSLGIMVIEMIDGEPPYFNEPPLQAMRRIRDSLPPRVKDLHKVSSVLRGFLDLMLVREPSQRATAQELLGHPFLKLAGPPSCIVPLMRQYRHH
`CCCNC(=O)Nc1ccc(Oc2ncnc3cc(OC)c(OC)cc23)cc1Cl` has a remaining activity of 84.5%.
For `O=C1NC(=O)c2c1c1c3ccccc3[nH]c1c1[nH]c3cc(Br)ccc3c21`, the remaining activity was 96.7%.
The remaining activity of `COc1ccc(COc2ccc(Cc3cnc(N)nc3N)cc2OC)cc1` is reported as 103%.
The remaining activity of `Cc1ccc(S(=O)(=O)/C=C/C#N)cc1` is reported as 100%.
With `COc1cccc(-c2cc(=O)c3ccccc3o2)c1N` the remaining activity was 99.7%.
`c1ccc2c(-c3ccncc3)c[nH]c2c1` gave a remaining activity of 93.8%.
With `N#Cc1cnc2cnc(NCc3cccnc3)cc2c1Nc1ccc(F)c(Cl)c1` the remaining activity was 98.3%.
For `CCCCc1c(-c2ccc(OC)cc2)[nH]c2nccnc12`, the remaining activity was 88.1%.
With `Cc1cc(Nc2cc(N3CCN(C)CC3)nc(Sc3ccc(NC(=O)C4CC4)cc3)n2)[nH]n1` the remaining activity was 91.7%.
For `O=Nc1c(-c2c(O)[nH]c3cc(Br)ccc23)[nH]c2ccccc12`, the remaining activity was 104%.
`O=C(c1cc2cc(O)ccc2[nH]1)c1cc2cc(O)ccc2[nH]1` has a remaining activity of 85.3%.
`O=C1Cc2c([nH]c3ccc(Br)cc23)-c2ccccc2N1` gave a remaining activity of 85.1%.
The remaining activity of `O=c1cc(N2CCOCC2)oc2c(-c3ccccc3)cccc12` is reported as 104%.
`c1ccc(-c2n[nH]c3c2oc2ccccc23)cc1` has a remaining activity of 70.9%.
`O=C1NC(=O)c2c1c1c3ccccc3[nH]c1n1cncc21` has a remaining activity of 80%.
`CN1CCN(c2ccc3nc(-c4c(N)c5c(F)cccc5[nH]c4=O)[nH]c3c2)CC1` has a remaining activity of 82.7%.
The remaining activity of `Oc1cccc(-c2nc(N3CCOCC3)c3oc4ncccc4c3n2)c1` is reported as 92.8%.
With `COc1ccc2c(c1)c(C1=C(c3c[nH]c4ccccc34)C(=O)NC1=O)cn2CCCN(C)C` the remaining activity was 67.6%.
`O=C1Nc2ccc(Br)cc2/C1=C/c1cc2c([nH]1)CCCC2` has a remaining activity of 85.4%.

Block 4 — effect on: cell-free assay; technique: competition with immobilised ligand; tested at: 0.1 µM
Structure (SMILES): Cn1nc(C(=O)NCc2ccc(C(=O)O)cc2)cc1-c1ccc2[nH]ccc2c1
The remaining binding was 100% (GRK7 (Homo sapiens, UniProt Q8WTQ7)).
The remaining binding was 64% (PIK3CG (Homo sapiens, UniProt P48736)).
It gave 84% for remaining binding (EIF2AK2 (Homo sapiens, UniProt P19525)).
For HASPIN (Homo sapiens, UniProt Q8TF76): remaining binding read 77%.
OXSR1 (Homo sapiens, UniProt O95747) — remaining binding: 88%.
MAP3K3 (Homo sapiens, UniProt Q99759) — remaining binding: 78%.
It gave 85% for remaining binding (CDKL5 (Homo sapiens, UniProt O76039)).
CDK14 (Homo sapiens, UniProt O94921) — remaining binding: 100%.
It gave 90% for remaining binding (Tyrosine-protein kinase JAK2, JH1 (JAK2, Homo sapiens, UniProt O60674)).
For CSNK1G3 (Homo sapiens, UniProt Q9Y6M4): remaining binding read 94%.
For MUSK (Homo sapiens, UniProt O15146): remaining binding read 95%.
The remaining binding was 92% (MAP4K4 (Homo sapiens, UniProt O95819)).
It gave 100% for remaining binding (WNK4 (Homo sapiens, UniProt Q96J92)).
For Ribosomal protein S6 kinase alpha-4, C-terminal kinase domain (RPS6KA4, Homo sapiens, UniProt O75676): remaining binding read 81%.
KIT (Homo sapiens, UniProt P10721, D816V) — remaining binding: 91%.
PIP4K2C (Homo sapiens, UniProt Q8TBX8) — remaining binding: 63%.
The remaining binding was 86% (FLT3 (Homo sapiens, UniProt P36888, K663Q)).
It gave 91% for remaining binding (MAP3K15 (Homo sapiens, UniProt Q6ZN16)).
It gave 100% for remaining binding (STK32B (Homo sapiens, UniProt Q9NY57)).
NEK5 (Homo sapiens, UniProt Q6P3R8) — remaining binding: 48%.
For EIF2AK1 (Homo sapiens, UniProt Q9BQI3): remaining binding read 90%.
For INSRR (Homo sapiens, UniProt P14616): remaining binding read 98%.
The remaining binding was 89% (PRKD3 (Homo sapiens, UniProt O94806)).
For TEK (Homo sapiens, UniProt Q02763): remaining binding read 82%.
It gave 98% for remaining binding (Macrophage colony-stimulating factor 1 receptor, autoinhibited (CSF1R, Homo sapiens, UniProt P07333)).
